Results collected from several papers.
Lines come from different studies, so protocols differ.
Organism: Escherichia coli

CC[C@H](C)[C@H](NC(=O)CNC(=O)[C@H](C)NC(=O)[C@@H](NC(=O)[C@@H](NC(=O)[C@@H](NC(=O)[C@@H](NC(=O)[C@@H](NC(=O)[C@H](CC(C)C)NC(=O)[C@H](CC(C)C)NC(=O)[C@@H]1CCCN1C(=O)[C@H](Cc1c[nH]c2ccccc12)NC(=O)[C@@H](N)Cc1ccccc1)[C@@H](C)CC)[C@@H](C)O)[C@@H](C)O)C(C)C)C(C)C)C(=O)N[C@@H](CC(N)=O)C(=O)N[C@@H](CC(C)C)C(=O)N[C@@H](Cc1ccc(O)cc1)C(=O)N[C@@H](CCCNC(=N)N)C(=O)N[C@@H](C)C(=O)N[C@H](C(=O)N[C@@H](CCCNC(=N)N)C(=O)N[C@@H](CCCNC(=N)N)C(=O)N[C@@H](CCCCN)C(=O)O)[C@@H](C)CC
MIC (broth microdilution; K88, Mueller-Hinton broth; 37 °C): 108 µM

CC[C@H](C)[C@H](NC(=O)[C@H](CCCNC(=N)N)NC(=O)[C@H](CCCNC(=N)N)NC(=O)[C@H](CCCNC(=N)N)NC(=O)[C@H](CCCNC(=N)N)NC(=O)[C@H](CCCNC(=N)N)NC(=O)[C@@H](N)CCCNC(=N)N)C(=O)N[C@@H](CO)C(=O)N[C@@H](Cc1ccccc1)C(=O)N[C@@H](CC(C)C)C(=O)NCC(=O)N[C@@H](CO)C(=O)N[C@@H](CCCCN)C(=O)N[C@@H](CCCCN)C(=O)N[C@@H](CCCCN)C(=O)N[C@@H](CCCCN)C(=O)N[C@@H](CCCCN)C(=O)N[C@@H](CC(C)C)C(=O)N[C@@H](CC(C)C)C(=O)N[C@@H](CCCCN)C(=O)N[C@@H](CCCNC(=N)N)C(N)=O
MIC (checkerboard; 24 h, 37 °C, alone, rifampicin plate): 32 µM

CC1(C)SC2C(NC(=O)C(NC(=O)C3=C(O)C4(CC4)NC3=O)c3ccccc3)C(=O)N2C1C(=O)O (stereo not drawn)
MIC (broth microdilution; ATCC 35218, low-level TEM-1; with: clavulanic acid 6 µg/mL): 200 µg/mL

N=C(N)c1ccc(OCc2ccccc2COc2ccc(C(=N)N)cc2)cc1
MIC (BW25113 mcr-1; in combination, checkerboard, with: rifampicin): 25 µg/mL

CC[C@H](C)[C@H](N)C(=O)N[C@@H](CC(C)C)C(=O)NCC(=O)N[C@H](CCCNC(=N)N)C(=O)N[C@H](C(=O)N[C@@H](Cc1c[nH]c2ccccc12)C(=O)N[C@@H](CCCCN)C(=O)NCC(=O)N[C@H](C(=O)N[C@@H](CCCCN)C(=O)N[C@@H](CC(=O)O)C(=O)N[C@H](C(=O)N[C@@H](CC(C)C)C(N)=O)[C@@H](C)CC)[C@@H](C)CC)[C@@H](C)CC
MIC (broth microdilution; ATCC 25922; with: human serum 10%): 12.5 µM

C[C@@H](O)[C@H](NC(=O)[C@H](Cc1ccccc1)NC(=O)[C@H](Cc1c[nH]c2ccccc12)NC(=O)[C@H](Cc1ccccc1)NC(=O)[C@@H](NC(=O)[C@H](Cc1ccccc1)NC(=O)[C@H](CCCNC(=N)N)NC(=O)[C@@H](N)CCCNC(=N)N)[C@@H](C)O)C(=O)N[C@@H](Cc1ccccc1)C(=O)N[C@@H](CCCNC(=N)N)C(=O)N[C@@H](CCCNC(=N)N)C(N)=O
MIC (broth microdilution; 25922, Mueller-Hinton broth; 24 h, 37 °C, lowest concentration, 95% inhibition, with: BSA): 16 µM

C[C@H]1COCCN1c1nc(NCc2cccnc2C(F)(F)F)c2cccnc2n1
MIC (broth microdilution; NCTC 86): 128 µg/mL

CC[C@H](C)[C@H](NC(=O)[C@H](CC(C)C)NC(=O)[C@H](CCCNC(=N)N)NC(=O)[C@@H](N)CCCNC(=N)N)C(=O)N[C@@H](CCCNC(=N)N)C(=O)N[C@H](C(=O)N[C@@H](CC(=O)O)C(=O)N[C@H](C(=O)NCC(=O)N1CCC[C@H]1C(=O)N[C@H](C(=O)N[C@H](C(=O)N[C@@H](Cc1ccc(O)cc1)C(=O)N[C@@H](CC(=O)O)C(=O)N[C@@H](Cc1ccc(O)cc1)C(=O)N[C@@H](Cc1ccccc1)C(=O)N[C@@H](CCCCN)C(=O)N[C@@H](CC(=O)O)C(=O)N[C@@H](CCC(N)=O)C(=O)N[C@@H](CC(C)C)C(=O)N[C@@H](CC(C)C)C(=O)N[C@@H](CCCCN)C(=O)N[C@@H](CCCCN)C(N)=O)[C@@H](C)CC)[C@@H](C)CC)[C@@H](C)O)[C@@H](C)O
MIC (broth microdilution; KCTC 1682, Mueller-Hinton broth; 24 h, 37 °C): > 128 µM

CC[C@H](C)[C@H](NC(=O)[C@@H](NC(=O)[C@H](Cc1ccccc1)NC(=O)CNC(=O)[C@H](CCC(N)=O)NC(=O)[C@H](CCCCN)NC(=O)[C@H](C)N)C(C)C)C(=O)N[C@@H](Cc1ccc(O)cc1)C(=O)N[C@@H](CCCNC(=N)N)C(=O)N[C@H](C(=O)N[C@@H](CCCNC(=N)N)C(=O)N[C@H](C(=O)N[C@@H](CCCNC(=N)N)C(=O)N[C@@H](CCCNC(=N)N)C(=O)NCC(=O)N[C@@H](CC(N)=O)C(=O)N[C@@H](CCCNC(=N)N)C(=O)N[C@@H](CCCCN)C(N)=O)C(C)C)C(C)C
MIC (broth dilution; ATCC 25922, Mueller-Hinton broth; 24 h, 37 °C): 25 µM

O=C(O)c1cccc(C(=O)O)n1
MIC (NDM-1 producer; 32 µg/mL, MIC of meropenem, with: meropenem): 0.25 µg/mL

CC[C@H](C)[C@H](NC(=O)CNC(=O)[C@H](CC(=O)O)NC(=O)[C@H](CCCNC(=N)N)NC(=O)[C@@H](NC(=O)[C@H](CC(N)=O)NC(=O)[C@H](CCCNC(=N)N)NC(=O)CNC(=O)[C@@H](NC(=O)[C@H](CCCCN)NC(=O)[C@H](CCC(=O)O)NC(=O)[C@@H](NC(=O)[C@H](CCCCN)NC(=O)[C@H](CCCCN)NC(=O)[C@H](Cc1ccccc1)NC(=O)[C@@H](NC(=O)[C@H](CCCCN)NC(=O)[C@H](Cc1c[nH]c2ccccc12)NC(=O)[C@@H](N)CCCNC(=N)N)[C@@H](C)CC)[C@@H](C)CC)C(C)C)C(C)C)C(=O)N[C@H](C(=O)N[C@@H](CCCCN)C(=O)N[C@@H](C)C(=O)NCC(=O)N1CCC[C@H]1C(=O)N[C@@H](C)C(=O)N[C@H](C(=O)N[C@@H](C)C(=O)N[C@H](C(=O)N[C@H](C(=O)NCC(=O)N[C@@H](CCC(N)=O)C(=O)N[C@@H](C)C(=O)N[C@@H](C)C(=O)N[C@H](C(=O)N[C@H](C(=O)N[C@H](C(=O)N[C@@H](CCCCN)C(N)=O)C(C)C)C(C)C)[C@@H](C)O)C(C)C)C(C)C)C(C)C)[C@@H](C)CC
MIC (NCCP 16284 carbapenem-resistant): 2 µM

CC(C)C[C@H](NC(=O)[C@H](CC(C)C)NC(=O)[C@@H](N)[C@@H](C)O)C(=O)N[C@@H](CCCCN)C(=O)N[C@@H](CCCCN)C(=O)N[C@H](C(=O)N[C@@H](CC(C)C)C(=O)N[C@@H](CCCCN)C(=O)N[C@@H](C)C(=O)N[C@@H](C)C(=O)N[C@@H](C)C(=O)N[C@@H](CCCCN)C(=O)O)C(C)C
MIC (TG1): > 25 µM

CC1(C)S[C@@H]2[C@H](NC(=O)C(C(=O)O)c3ccccc3)C(=O)N2[C@H]1C(=O)O (stereo partly drawn)
MIC: 1000 µg/mL

CC[C@H](C)[C@H](NC(=O)CNC(=O)[C@H](CC(=O)O)NC(=O)[C@H](CCCNC(=N)N)NC(=O)[C@@H](NC(=O)[C@H](CC(N)=O)NC(=O)[C@H](CCCNC(=N)N)NC(=O)CNC(=O)[C@@H](NC(=O)[C@H](CCCCN)NC(=O)[C@H](CCC(=O)O)NC(=O)[C@@H](NC(=O)[C@H](CCCCN)NC(=O)[C@H](CCCCN)NC(=O)[C@H](Cc1ccccc1)NC(=O)[C@@H](NC(=O)[C@H](CCCCN)NC(=O)[C@H](Cc1c[nH]c2ccccc12)NC(=O)[C@@H](N)CCCNC(=N)N)[C@@H](C)CC)[C@@H](C)CC)C(C)C)C(C)C)C(=O)N[C@H](C(=O)N[C@@H](CCCCN)C(=O)N[C@@H](C)C(=O)N1CCC[C@H]1C(=O)N1CCC[C@H]1C(=O)N[C@@H](C)C(=O)N[C@H](C(=O)N[C@@H](C)C(=O)N[C@H](C(=O)N[C@H](C(=O)NCC(=O)N[C@@H](CCC(N)=O)C(=O)N[C@@H](C)C(=O)N[C@@H](C)C(=O)N[C@H](C(=O)N[C@H](C(=O)N[C@H](C(=O)N[C@@H](CCCCN)C(N)=O)C(C)C)C(C)C)[C@@H](C)O)C(C)C)C(C)C)C(C)C)[C@@H](C)CC
MIC (K1 ATCC 700973, Mueller-Hinton broth; 16 h, 37 °C; growth inhibition over 99%): 2 µM

CC[C@H](C)[C@H](NC(=O)[C@H](CCCCN)NC(=O)[C@H](CC(=O)O)NC(=O)[C@H](CC(C)C)NC(=O)[C@@H](NC(=O)[C@H](CC(N)=O)NC(=O)[C@H](CC(C)C)NC(=O)[C@@H](NC(=O)[C@H](Cc1ccccc1)NC(=O)[C@H](CCCCN)NC(=O)[C@H](CCCCN)NC(=O)CNC(=O)[C@H](C)NC(=O)[C@H](CC(N)=O)NC(=O)[C@H](CCCCN)NC(=O)[C@H](Cc1ccccc1)NC(=O)[C@H](CC(N)=O)NC(=O)[C@H](CCC(=O)O)NC(=O)[C@H](Cc1c[nH]c2ccccc12)NC(=O)[C@H](CC(C)C)NC(=O)[C@@H](N)CO)[C@@H](C)CC)[C@@H](C)CC)C(=O)N[C@@H](CCCNC(=N)N)C(N)=O
MIC (ATCC 8739; overnight, 37 °C, no added salts or serum): 2 µM

CC1(C)SC2C(NC(=O)C(NC(=O)C3=C(O)C(Cc4ccc(O)cc4)NC3=O)c3ccccc3)C(=O)N2C1C(=O)O (stereo not drawn)
MIC (broth microdilution; ATCC 35218, low-level TEM-1; with: clavulanic acid 6 µg/mL): 200 µg/mL

CC(C)Oc1c(NC(=O)c2ccc(NC(=O)[C@H](CC(N)=O)NC(=O)c3ccc(NC(=O)c4ccc(C#N)cc4)cc3)cc2)ccc(C(=O)N/N=C/c2ccc(C(=O)O)cc2)c1O
MIC (BW25113; 18 h, 37 °C, dark-adapted state): 0.01 µg/mL

C/C(O)=C1\C(=O)C(CC(C)C)N(C(=O)CCCCCc2ccccc2)C1=O (stereo not drawn)
MIC (K12 ΔtolC): 0.39 µg/mL

CC1(C)CC[C@]2(C(=O)O)CC[C@]3(C)C(=CC[C@@H]4[C@@]5(C)CC[C@H](O)C(C)(C)[C@@H]5CC[C@]43C)[C@@H]2C1
MIC (E2, NDM-9/OXA-10): 512 µg/mL

Cc1cc(-c2cn[nH]c2-c2cccc(OCc3cccc(C#N)c3)c2)cc(C)n1
MIC (broth microdilution; ΔtolC JW5503): 0.008 µg/mL

Oc1cc(Cl)ccc1Oc1ccc(Cl)cc1Cl
MIC (MG1655 FabI A116V Debio-1452-NH3-resistant): 0.5 µg/mL

Some of these lines once more:
CC[C@H](C)[C@H](NC(=O)[C@@H](NC(=O)[C@H](Cc1ccccc1)NC(=O)CNC(=O)[C@H](CCC(N)=O)NC(=O)[C@H](CCCCN)NC(=O)[C@H](C)N)C(C)C)C(=O)N[C@@H](Cc1ccc(O)cc1)C(=O)N[C@@H](CCCNC(=N)N)C(=O)N[C@H](C(=O)N[C@@H](CCCNC(=N)N)C(=O)N[C@H](C(=O)N[C@@H](CCCNC(=N)N)C(=O)N[C@@H](CCCNC(=N)N)C(=O)NCC(=O)N[C@@H](CC(N)=O)C(=O)N[C@@H](CCCNC(=N)N)C(=O)N[C@@H](CCCCN)C(N)=O)C(C)C)C(C)C
MIC (broth dilution; ATCC 25922, Mueller-Hinton broth; 24 h, 37 °C): 25 µM

O=C(O)c1cccc(C(=O)O)n1
MIC (NDM-1 producer; 32 µg/mL, MIC of meropenem, with: meropenem): 0.25 µg/mL

CC[C@H](C)[C@H](NC(=O)CNC(=O)[C@H](CC(=O)O)NC(=O)[C@H](CCCNC(=N)N)NC(=O)[C@@H](NC(=O)[C@H](CC(N)=O)NC(=O)[C@H](CCCNC(=N)N)NC(=O)CNC(=O)[C@@H](NC(=O)[C@H](CCCCN)NC(=O)[C@H](CCC(=O)O)NC(=O)[C@@H](NC(=O)[C@H](CCCCN)NC(=O)[C@H](CCCCN)NC(=O)[C@H](Cc1ccccc1)NC(=O)[C@@H](NC(=O)[C@H](CCCCN)NC(=O)[C@H](Cc1c[nH]c2ccccc12)NC(=O)[C@@H](N)CCCNC(=N)N)[C@@H](C)CC)[C@@H](C)CC)C(C)C)C(C)C)C(=O)N[C@H](C(=O)N[C@@H](CCCCN)C(=O)N[C@@H](C)C(=O)NCC(=O)N1CCC[C@H]1C(=O)N[C@@H](C)C(=O)N[C@H](C(=O)N[C@@H](C)C(=O)N[C@H](C(=O)N[C@H](C(=O)NCC(=O)N[C@@H](CCC(N)=O)C(=O)N[C@@H](C)C(=O)N[C@@H](C)C(=O)N[C@H](C(=O)N[C@H](C(=O)N[C@H](C(=O)N[C@@H](CCCCN)C(N)=O)C(C)C)C(C)C)[C@@H](C)O)C(C)C)C(C)C)C(C)C)[C@@H](C)CC
MIC (NCCP 16284 carbapenem-resistant): 2 µM
